{"data": "Results of several laboratories", "note": "Parts stem from different laboratories: compare values within a part only. Positions count from the first letter of the parent shown."}
{"data": "Set 1", "target": "ABI1, truncated, D143A, DHFR fusion (Arabidopsis thaliana)", "technique": "DHFR PCA, deep sequencing", "sample": "yeast", "setting": "methotrexate growth selection, single substitutions", "together with": "(+)-ABA 710 µM", "reference": "wild-type fitted maximum", "direction": "higher = stronger binding", "starting sequence": "PYL1, truncated, DHFR fusion (Arabidopsis thaliana); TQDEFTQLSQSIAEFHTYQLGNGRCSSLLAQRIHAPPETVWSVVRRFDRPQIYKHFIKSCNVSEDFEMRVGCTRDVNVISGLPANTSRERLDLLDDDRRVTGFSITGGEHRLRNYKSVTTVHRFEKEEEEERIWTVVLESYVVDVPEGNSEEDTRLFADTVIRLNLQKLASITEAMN"}
{"Variant": "T135Q", "relative binding score [%]": 1.68}
{"Variant": "E64R", "relative binding score [%]": 102}
{"Variant": "T160G", "relative binding score [%]": 84.6}
{"Variant": "L29A", "relative binding score [%]": 89.3}
{"Variant": "W134N", "relative binding score [%]": 108}
{"Variant": "F47E", "relative binding score [%]": -4.09}
{"Variant": "R123P", "relative binding score [%]": 103}
{"Variant": "T39Y", "relative binding score [%]": 95.5}
{"Variant": "D159S", "relative binding score [%]": 90.8}
{"Variant": "N85Y", "relative binding score [%]": 104}
{"Variant": "L169M", "relative binding score [%]": 78.2}
{"Variant": "E147P", "relative binding score [%]": 98.9}
{"Variant": "P37R", "relative binding score [%]": 81.6}
{"Variant": "Y53G", "relative binding score [%]": 55.7}
{"Variant": "R46L", "relative binding score [%]": 91.3}
{"Variant": "C72K", "relative binding score [%]": 87.9}
{"Variant": "Q19F", "relative binding score [%]": 98.6}
{"Variant": "L112K", "relative binding score [%]": -13.7}
{"data": "Set 2", "target": "CCND1, cyclin fold, Cln2 fusion (human)", "technique": "yeast growth competition, sequencing", "sample": "yeast", "setting": "strong parent motif", "reference": "not given", "direction": "higher = stronger binding", "starting sequence": "PKN2 docking peptide (human); VSAVRKLDFSDTM"}
{"Variant": "VSAQRKLDFSDTM [V4Q]", "normalised enrichment score": 4.5}
{"Variant": "VSTVRKLDFSDTM [A3T]", "normalised enrichment score": 2.88}
{"Variant": "VSAVRKLDSSDTM [F9S]", "normalised enrichment score": 0.106}
{"Variant": "VPAVRKLDFSDTM [S2P]", "normalised enrichment score": 3.4}
{"Variant": "VSAVRMLDFSDTM [K6M]", "normalised enrichment score": 3.49}
{"Variant": "VTAVRKLDFSDTM [S2T]", "normalised enrichment score": 5.31}
{"Variant": "VSADRKLDFSDTM [V4D]", "normalised enrichment score": 0.248}
{"Variant": "VSAPRKLDFSDTM [V4P]", "normalised enrichment score": 0.543}
{"Variant": "VSAVRKLDFSDPM [T12P]", "normalised enrichment score": 5.65}
{"Variant": "VSAVRKLGFSDTM [D8G]", "normalised enrichment score": 0.726}
{"Variant": "VSAVKKLDFSDTM [R5K]", "normalised enrichment score": 2.62}
{"Variant": "VSAVCKLDFSDTM [R5C]", "normalised enrichment score": 3.26}
{"Variant": "VSAVDKLDFSDTM [R5D]", "normalised enrichment score": 0.862}
{"Variant": "VSAVRKLLFSDTM [D8L]", "normalised enrichment score": 0.672}
{"Variant": "VSAVYKLDFSDTM [R5Y]", "normalised enrichment score": 1.27}
{"Variant": "VSAVPKLDFSDTM [R5P]", "normalised enrichment score": 0.491}
{"data": "Set 3", "target": "Interferon regulatory factor 3, full length, phosphomimetic (IRF3, Homo sapiens, UniProt Q14653, residues 1-427, S386D/S396D/S398D/S402D/T404D/S405D)", "technique": "protein-binding microarray", "molecule type": "double-stranded DNA, one strand shown", "sample": "in vitro", "concentration": "2540 nM top", "setting": "60-bp whole probe", "together with": "salmon DNA 0.4 mg/ml", "reference": "random background probes", "direction": "higher = stronger binding", "all sequences stand within": "GCCTAGCAC … GTCTTGATTCGCTTGACGCTGCTG", "UniProt Q14653, sequence (whole entry, unmodified, looked up)": "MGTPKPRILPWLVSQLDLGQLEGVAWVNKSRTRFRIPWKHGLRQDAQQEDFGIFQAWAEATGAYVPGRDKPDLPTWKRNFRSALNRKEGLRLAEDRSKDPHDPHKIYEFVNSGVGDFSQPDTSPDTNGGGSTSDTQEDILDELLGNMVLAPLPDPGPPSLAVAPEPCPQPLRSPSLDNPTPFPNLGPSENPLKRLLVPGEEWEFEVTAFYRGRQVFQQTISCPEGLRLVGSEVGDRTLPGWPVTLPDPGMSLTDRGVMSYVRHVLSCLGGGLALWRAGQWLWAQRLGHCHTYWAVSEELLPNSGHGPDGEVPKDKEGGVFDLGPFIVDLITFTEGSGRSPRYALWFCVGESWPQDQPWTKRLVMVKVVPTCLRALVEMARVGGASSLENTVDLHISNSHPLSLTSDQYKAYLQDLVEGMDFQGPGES"}
{"Oligonucleotide": "TTAGGTTTCGACACTGGGTTAGTGCTA", "fitted relative affinity": "2.56 z-score"}
{"Oligonucleotide": "GACGGATTGGGTCTCGGGACGTGCTAG", "fitted relative affinity": "-0.175 z-score"}
{"Oligonucleotide": "GACGATAACAGTCTCGAGACGTGCTAG", "fitted relative affinity": "-0.115 z-score"}
{"Oligonucleotide": "TTAGGTCGCGGTTTCGGTTAGTGCTAG", "fitted relative affinity": "4.64 z-score"}
{"Oligonucleotide": "TTAGGGTTCCTACTGCTTTAGTGCTAG", "fitted relative affinity": "0.98 z-score"}
{"Oligonucleotide": "TCAAAACTCACTCATGGCACTGTGCTA", "fitted relative affinity": "-0.581 z-score"}
{"Oligonucleotide": "TTCGGTCTCGGTATCGGTTAGTGCTAG", "fitted relative affinity": "2.94 z-score"}
{"Oligonucleotide": "TTAGGTCTCGTTATCCTTTAGTGCTAG", "fitted relative affinity": "1.41 z-score"}
{"Oligonucleotide": "TTAGGTATCGCCTATCGGTTAGTGCTA", "fitted relative affinity": "0.287 z-score"}
{"Oligonucleotide": "TCATGCTTGTGTTTATTACTGTGCTAG", "fitted relative affinity": "-0.239 z-score"}
{"Oligonucleotide": "GACGGTCTCGGTATCGGGAGGTGCTAG", "fitted relative affinity": "1.51 z-score"}
{"Oligonucleotide": "TGACCTGCTCCAAACACCTCGTGCTAG", "fitted relative affinity": "0.452 z-score"}
{"Oligonucleotide": "GACGATTTCAGTCTCGTGACGTGCTAG", "fitted relative affinity": "2.29 z-score"}
{"Oligonucleotide": "TTAGATTTCAGACTGTATTAGTGCTAG", "fitted relative affinity": "0.858 z-score"}
{"Oligonucleotide": "GACGGTTTCGACTTACGGGACGTGCTA", "fitted relative affinity": "3.61 z-score"}
{"Oligonucleotide": "TTAGATTTCAGTTTCGATTAGTGCTAG", "fitted relative affinity": "5.63 z-score"}
{"Oligonucleotide": "GGGGCTTGGGAGAGGCATCCGTGCTAG", "fitted relative affinity": "-1.16 z-score"}
{"Oligonucleotide": "GACGATCTGAGACTGGAGACGTGCTAG", "fitted relative affinity": "-0.158 z-score"}
{"Oligonucleotide": "GGCGGACTGCTACTGCTGACGTGCTAG", "fitted relative affinity": "-0.846 z-score"}
{"Oligonucleotide": "TTAGGTATCCTTTTCCTTTGGTGCTAG", "fitted relative affinity": "8.36 z-score"}
{"data": "Single results of other studies"}
{"Substance": "PhoQ, residues 284 288 289 292 302 303 SMMNNA", "target": "PhoP, residues 12 14 15 18 19 NQFFI (Escherichia coli, UniProt P23836)", "assay": "Sort-seq, item: YFP reporter", "system": "E. coli", "conditions": "PhoQ-PhoP variant library, together with: 10 µM Mg2+", "scale": "reference: high Mg2+ state, higher = stronger signaling", "quantity": "fold induction", "result": 17.3}
